Experimental data from different studies.
Each numbered part is a random draw from the data of one study; scales do not carry over between parts. Substitutions count along the parent as printed.

Series 1
Target: RNA binding protein fox-1 homolog 2, RRM domain, GST-SBP tag (RBFOX2, Homo sapiens, UniProt O43251-10, residues 100-194)
Technique: RNA Bind-n-Seq
Molecule type: RNA
Sample: in vitro
Tested at: 365 nM
Notes: natural RNA segment, single round, ends assumed
Reference: no-protein control
Reading: higher = stronger binding
Constant ends, left off below: GGGAGUUCUACAGUCCGACGAUC … UGGAAUUCUCGGGUGCCAA
Target sequence (chain): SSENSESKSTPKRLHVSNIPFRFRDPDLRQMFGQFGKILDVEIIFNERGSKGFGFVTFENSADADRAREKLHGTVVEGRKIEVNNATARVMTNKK
Oligonucleotide	RBNS enrichment (R)
UGGUAGUGAUGUAUAUUUUACAUUUGUCAUUUCAGUGUUACUGGAGUUUUCUUCAUUGUGCACACAGGACAAAUCUGAUCUCUUUGGGAAAAAAUAGAAAUAAAACAAUC	0.426
UUAAGAAUGUAAAGUGAUUCUGUAUCAAUGUAAAUAAGAUGAUCUACUACAAAAGAUAUUUAAAAUCAAAAUUGUGGUCAUUUCUUCUUUGAGAGUUCAAAGUAGCUUCU	0.493
AUGGAUUUCAUGUGUUACAAUAUCAGUUUCCAGAAUAAAGUGAGGGAAAUCAGGUCUUUAUUGAUAAAGUUAGGGAGAAGAUUGAUGCAAUAGGACAAUUUCCAAUUUAA	0.851
GCCAGCGCUUCCUGGAUGAGCCUGCCUCACUAGCCCCGCUUCUCACCCUGCCUGGCAGCCGGGAAGCCUCCAGGCCUGCAGCCAUCAGCAGAACACAGGGAGAUGAUGUG	0.239
CUCUUUUGGAAAACAAAAAUCAGAAGGCUGCAUUCUAGAGGGCAGAGAAAUUCCCCCGAAGACUGAGCUGGUUGCCUGCAUCCUCUAUCUUCUUUGACCCUUAUGACUGA	0.902
UUUGUUAAAUUACCAAGUUUGGUUUUUAAUAAUUUCUCAAUAUUAUGCGCCAAGAUCUAAUUUUAAAACUGUAUGAGGACUUUGUGCUGAAAAUAGAGUAUUUUUUUAAA	0.626
GCCUUCUUUAUAAAAUAAGUGUAAGUUGUUCAGCCUGCCUCACAGGGCUGUUGUGAGGAAAUAAAAUGAAAUGGAGUAUGUGAAAUUGCUUCAGCAACAGCAAAGUGCUA	1.07
CUUGACUACCUGAGUUUCCUGUCUCUACUUCUUUUCAGCUUCUGGGACCACAGGCCUGUACCACCAUGGCCAGCUUUAGAGAGUAAAACAUUUUAAUUUGUUCUUGAUUU	0.611
GAAUUCAGCACCGCAAGGAAAUUAUGGGUAUGUGAGCCAUAAUAUGAUGGGCAGCAGGUGGCGCUGCCUUCCACCCAUGGUGAUGGAUGGUUUGGAAAGGGAAUGUUGGU	4.67
CCUCAGUGGCCAGGCGCAAGGCUACAGGUGCAGUCACCUGUUCCCGGCCACCUUCCCUCCCAUCUUUGGCAGACAGAAGUCUCAGCUCUCACUAGAGGGAAGACCUGGGC	0.253
GCUUUCUCUUACAAAAAGAAAAAAAAAAUCCUGUUGUAUUAACAUUUAAAAACAGAAUUGUGUUAUGUGAUCAGUUUUGGGGGUUAACUUUGCUUAAUUCCUCAGGCUUU	0.423
UAGCUAUUUUUAUACACUGUAAGCUUUGUUCUGGGAGUUGCUGUUAAUCUGAUGUAUAAUGUAAUGUUUUUAUUUCAAUUGUUUAUAUGGAUAAUCUGAGCAGGUACAUU	0.719

Series 2
Target: CCNA2, cyclin fold, Cln2 fusion (human)
Technique: yeast growth competition, sequencing
Sample: yeast
Notes: strong parent motif
Reference: not given
Reading: higher = stronger binding
Starting sequence: CDAN1 docking peptide (human); RGARSQLFPPTEA
Substitution	normalised enrichment score
RAARSQLFPPTEA [G2A]	1.12
RGARSQLFPPAEA [T11A]	1.95
RGARSALFPPTEA [Q6A]	0.587
RGARSQLFPATEA [P10A]	1.74
RGAASQLFPPTEA [R4A]	0.559
RGARAQLFPPTEA [S5A]	4.2

Series 3
Target: RING finger protein unkempt homolog, zinc fingers 1-6, GST-SBP tag (UNK, Homo sapiens, UniProt Q9C0B0, residues 30-357)
Technique: RNA Bind-n-Seq
Molecule type: RNA
Sample: in vitro
Tested at: not given
Notes: RNA with constant flanks, human-mouse chimeric sites, ends assumed
Reference: input RNA pool
Reading: higher = stronger binding
Constant ends, left off below: GGGAGUUCUACAGUCCGACGAUC … CAACAGAGGAUUGAGCAUCA
Target sequence (chain): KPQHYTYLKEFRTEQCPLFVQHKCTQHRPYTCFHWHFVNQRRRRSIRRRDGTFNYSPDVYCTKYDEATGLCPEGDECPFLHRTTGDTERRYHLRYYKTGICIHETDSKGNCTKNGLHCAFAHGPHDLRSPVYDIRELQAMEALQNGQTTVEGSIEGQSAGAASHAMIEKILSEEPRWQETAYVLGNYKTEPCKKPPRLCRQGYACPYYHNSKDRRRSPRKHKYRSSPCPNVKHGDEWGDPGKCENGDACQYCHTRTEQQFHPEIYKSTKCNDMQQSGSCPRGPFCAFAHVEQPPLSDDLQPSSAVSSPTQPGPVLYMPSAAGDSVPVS
Oligonucleotide	bound/input enrichment [ratio]
AAAGUGAUGACUAUGUUUGUCCAACGACAGGUAUUUUCGGAGAGCAAAGAUGAGAUUGCGUUAGUCCUCUAUGGCACAGAUGGCACUGAUAAUGCCCUUUCUGGUGGGGAUCAGUAUCAG	0.301
GACCCACAGUGGUCUGAGGAGCAACUCAUUGCUGCAAAAUUCUGUUUUGCUGGCCUUGUUAUAGGGCAGACUGAAGUGGACAUCAUGAGUCAUGCCACACAAGCUAUUUUUGAAAUUCUG	0.194
GUACUGCAGCAGCAGGGCAAGCUGCAGGAAGCUCUGAUGCACUAUAAGGAGGCUAUUCGAAUCAGUCCUACCUUUGCUGAUGCCUACUCUAAUAUGGGAAACACUCUAAAGGAGAUGCAG	0.233
CUGUGACCACAAGAUCCUACCUGAGUGGCAGCUGAAGUUGACUCCCUCUCCUUGCCUGAACCCCCCCCUUUUGUUCCCCCAUCCCCCGCAGAAUUCCGAGAUGUUGCCUCUGCACGGUUC	2.53
UCAAGGGGGCACUGCAGAGCCAUGCCUUUCCUUGACAUACAGAAAAAGCUGGGCAUCAGCCUGGACCGAUGGUUGACGUUCCUAAGCGCAGAACAGCCCUAUAAGAACGCCGCUCGGUGC	0.087
ACUCAGAGAUCCACCUCAAUUGAAGUGCUGGAGCUCUGUGUGGCCACCACACCUAACUUGAUGGAUAUAUAUUUUUUUUAAUAUGAAUCUUCCUGUUCGUCCAGGGAAGAAAGAUUUGUU	1.2
UUUGUAUUUAUGCUAAGCACGCGUGCUGGUGGUCUGGGCAUCAAUCUUGCAACUGCUGAUGUAGUCAUUUUAUAUGAUUCUGAUUGGAAUCCGCAAGUUGAUCUUCAGGCUAUGGACCGU	0.18
GCAAAGGAUGAUGAGGCAGCUGCAGUUGCCCUUUCCUCUCUCGUUCAUGCUUUGGAUGAGUUAAACAUGGUGGCCAUCGUCCGAUAUGCUUAUGACAAAAGAUCUAAUCCUCAAGUUGGU	0.143
GGCCUGGGACCGUCCUGGCUAGUGCAAAUAGCGGCAGGUGGAGGCUCGAGAGGAAAGUUUGUUAGUGGAGGCAGUGGUAGAGGCCGUCAUGUACGGUCCUUUACUCGAUAGAUGUGUUCU	0.691
CGGAGCCCCUCCCUCUCACAGGCCCAAGAUAUAACCCACCAGUGCCUUUUGUCUUCCUGUCAGCUCUGUCAAUCACGGCCCUGCCUUCACGCCCACACCAAGUGCCCAAAGUGGGGAGGG	0.249
GGAUCUUUGGGACUGUUUUACUUAAUUGGUCAUUGAUAGCUUAACAAACAUGGAGAUAAGAUUAGAAAUCUUGACAUCAACAAGUAUUAAGCAGAAAAAACCAUGGCCACGUGUCUCCUG	0.186

Series 4
Target: Sal-like protein 4, full length isoform A (SALL4, Homo sapiens, UniProt Q9UJQ4, residues 1-1053)
UniProt Q9UJQ4, sequence (whole entry, looked up): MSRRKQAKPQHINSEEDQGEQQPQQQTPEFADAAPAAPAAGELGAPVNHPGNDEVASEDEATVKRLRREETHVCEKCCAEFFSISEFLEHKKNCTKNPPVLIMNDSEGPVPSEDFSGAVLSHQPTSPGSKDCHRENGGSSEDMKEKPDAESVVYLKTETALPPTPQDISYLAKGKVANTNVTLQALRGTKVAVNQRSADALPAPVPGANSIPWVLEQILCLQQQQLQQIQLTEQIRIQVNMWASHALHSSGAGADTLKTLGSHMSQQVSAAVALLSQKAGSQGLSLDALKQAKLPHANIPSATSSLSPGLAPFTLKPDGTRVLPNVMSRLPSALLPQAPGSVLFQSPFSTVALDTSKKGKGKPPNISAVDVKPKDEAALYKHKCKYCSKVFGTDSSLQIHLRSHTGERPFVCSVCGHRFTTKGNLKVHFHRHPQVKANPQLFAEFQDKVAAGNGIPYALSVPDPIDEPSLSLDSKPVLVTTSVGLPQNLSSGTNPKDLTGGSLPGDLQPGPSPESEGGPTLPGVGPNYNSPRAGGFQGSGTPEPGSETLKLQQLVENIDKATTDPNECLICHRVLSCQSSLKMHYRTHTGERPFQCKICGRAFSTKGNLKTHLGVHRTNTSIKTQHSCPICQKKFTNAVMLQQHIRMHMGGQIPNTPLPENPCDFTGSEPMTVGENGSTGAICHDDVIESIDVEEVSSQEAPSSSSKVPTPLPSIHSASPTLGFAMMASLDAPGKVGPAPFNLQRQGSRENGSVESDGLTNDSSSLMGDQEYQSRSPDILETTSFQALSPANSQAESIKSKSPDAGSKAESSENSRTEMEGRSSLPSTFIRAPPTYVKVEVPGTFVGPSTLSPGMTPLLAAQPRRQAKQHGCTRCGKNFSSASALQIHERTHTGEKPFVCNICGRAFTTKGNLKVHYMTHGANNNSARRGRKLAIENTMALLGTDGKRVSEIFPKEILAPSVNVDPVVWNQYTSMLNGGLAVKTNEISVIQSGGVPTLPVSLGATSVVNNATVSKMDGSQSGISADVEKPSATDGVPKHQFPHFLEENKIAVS
Technique: universal PBM
Molecule type: double-stranded DNA, one strand shown
Sample: in vitro
Tested at: 600 nM
Notes: 8-mer, flanks averaged, mean of replicates
Reading: higher = stronger binding
Oligonucleotide	E-score
AAAGTTTA	0.282
CGCTCACC	-0.275
ACCTCTAG	0.0413
ACACTGTA	0.0825
CGGTTATA	0.242
CCTGGCTC	-0.229
CCGAACCC	-0.365
GGCTTGCA	-0.109
CTAAACAC	0.194
GCTTCAGA	-0.00449
ACCGCGAT	-0.0762
ATCACGCG	-0.025
AACAGCAA	0.149
ACAACCAC	-0.0127
GTCTAGTA	0.117
GTACCTTA	0.112

Some of these lines once more (series 1):
Oligonucleotide	RBNS enrichment (R)
UAGCUAUUUUUAUACACUGUAAGCUUUGUUCUGGGAGUUGCUGUUAAUCUGAUGUAUAAUGUAAUGUUUUUAUUUCAAUUGUUUAUAUGGAUAAUCUGAGCAGGUACAUU	0.719
UUAAGAAUGUAAAGUGAUUCUGUAUCAAUGUAAAUAAGAUGAUCUACUACAAAAGAUAUUUAAAAUCAAAAUUGUGGUCAUUUCUUCUUUGAGAGUUCAAAGUAGCUUCU	0.493
AUGGAUUUCAUGUGUUACAAUAUCAGUUUCCAGAAUAAAGUGAGGGAAAUCAGGUCUUUAUUGAUAAAGUUAGGGAGAAGAUUGAUGCAAUAGGACAAUUUCCAAUUUAA	0.851
GCCUUCUUUAUAAAAUAAGUGUAAGUUGUUCAGCCUGCCUCACAGGGCUGUUGUGAGGAAAUAAAAUGAAAUGGAGUAUGUGAAAUUGCUUCAGCAACAGCAAAGUGCUA	1.07
UUUGUUAAAUUACCAAGUUUGGUUUUUAAUAAUUUCUCAAUAUUAUGCGCCAAGAUCUAAUUUUAAAACUGUAUGAGGACUUUGUGCUGAAAAUAGAGUAUUUUUUUAAA	0.626
GCCAGCGCUUCCUGGAUGAGCCUGCCUCACUAGCCCCGCUUCUCACCCUGCCUGGCAGCCGGGAAGCCUCCAGGCCUGCAGCCAUCAGCAGAACACAGGGAGAUGAUGUG	0.239
